Results collected from several papers.
Numbers after ± are the reported error. In brackets after ≈: the same amount, converted by molar mass.
Organism: Candida albicans

CC(C)c1ccc(/C=C2\N=C(SCc3ccccc3)N(c3ccccc3)C2=O)cc1 — inhibition zone diameter (ATCC 10231; concentration not given): 12 ± 0.15 mm
C(=N\Nc1ccccc1)/c1ccc(-c2ccc(/C=N/Nc3ccccc3)cc2)cc1 — selectivity index (ATCC 64124 resistant; reference: mammalian CC50 over MIC): < 0.6
Cc1n[nH]c2ccc(-c3cc(OC[C@@H](N)Cc4ccccc4)cnc3-c3ccoc3)cc12 — number of kinases (binding, MIB/MS competition; Candida albicans cell lysate; 10 µM, besides Yck2 and Hog1): 30
CC(=O)ON=C1C=CC(=C(C#N)c2ccccc2)C=C1 — effective concentration (mature biofilm disaggregation, crystal violet; at MIC/4): 0.5 µg/mL
Fc1cccc(N/N=C/c2ccc(-c3cccc(/C=N/Nc4cccc(F)c4)c3)cc2)c1 — selectivity index (ATCC 64124 resistant; reference: mammalian CC50 over MIC): < 0.4
O=C1/C(=C/c2ccc(O)cc2O)NC(=S)N1c1ccccc1 — inhibition zone diameter (ATCC 10231; concentration not given): 12 ± 0.32 mm
C[C@@H]1[C@H](O)[C@@H](C)/C=C/C=C/C=C/C=C/C=C/C=C/C=C/[C@H](O[C@@H]2O[C@H](C)[C@@H](O)[C@H](N)[C@@H]2O)C[C@@H]2O[C@](O)(C[C@@H](O)C[C@@H](O)[C@H](O)CC[C@@H](O)C[C@@H](O)CC(=O)O[C@H]1C)C[C@H](O)[C@H]2C(=O)O — amount bound to cells (LC-MS; 63 µg/mL, 1 h, 35 °C): 8.7 pg
CCCCCOc1ccc(-c2ccc(-c3ccc(C(=O)N[C@H]4C[C@@H](O)[C@@H](OCC[N+](C)(C)C)NC(=O)[C@@H]5[C@@H](O)[C@@H](C)CN5C(=O)[C@H]([C@@H](C)O)NC(=O)[C@H]([C@H](O)[C@@H](O)c5ccc(O)cc5)NC(=O)[C@@H]5C[C@@H](O)CN5C(=O)[C@H]([C@@H](C)O)NC4=O)cc3)cc2)cc1 — MIC (CLSI broth microdilution; K-1): 0.008 µg/mL
OC(Cn1cncn1)(Cn1cncn1)c1ccc(F)cc1F — biofilm mass reduction (XTT, preformed biofilm; ATCC 60193; 1 × MIC, 24 h): 44 to 50%
OC(Cn1cncn1)(Cn1cncn1)c1ccc(F)cc1F — MIC (broth microdilution; 321; 24 h, compound alone): 1 µg/mL
O=C1/C(=C/c2ccc([N+](=O)[O-])cc2[N+](=O)[O-])NC(=S)N1c1ccccc1 — inhibition zone diameter (ATCC 10231; concentration not given): 15 ± 0.08 mm
OC(Cn1cncn1)(Cn1cncn1)c1ccc(F)cc1F — MIC50 (EUCAST; 48 h): 0.4 µM (≈ 0.123 µg/mL)
OC(Cn1cncn1)(Cn1cncn1)c1ccc(F)cc1F — MIC (56214 clinical isolate, compound-resistant, RPMI-MOPS; 48 h, 37 °C): 128 µM
CC(C)c1ccc(/C=C2\N=C(SCc3ccc([N+](=O)[O-])cc3)N(c3ccccc3)C2=O)cc1 — inhibition zone diameter (ATCC 10231; concentration not given): 11 ± 0.47 mm
